{"data": "Values quoted from earlier work that unrelated publications cite", "note": "Protocols differ between the studies behind these lines. ± gives the spread as reported.", "chain of UniProt Q8TCC7 (whole entry, looked up)": "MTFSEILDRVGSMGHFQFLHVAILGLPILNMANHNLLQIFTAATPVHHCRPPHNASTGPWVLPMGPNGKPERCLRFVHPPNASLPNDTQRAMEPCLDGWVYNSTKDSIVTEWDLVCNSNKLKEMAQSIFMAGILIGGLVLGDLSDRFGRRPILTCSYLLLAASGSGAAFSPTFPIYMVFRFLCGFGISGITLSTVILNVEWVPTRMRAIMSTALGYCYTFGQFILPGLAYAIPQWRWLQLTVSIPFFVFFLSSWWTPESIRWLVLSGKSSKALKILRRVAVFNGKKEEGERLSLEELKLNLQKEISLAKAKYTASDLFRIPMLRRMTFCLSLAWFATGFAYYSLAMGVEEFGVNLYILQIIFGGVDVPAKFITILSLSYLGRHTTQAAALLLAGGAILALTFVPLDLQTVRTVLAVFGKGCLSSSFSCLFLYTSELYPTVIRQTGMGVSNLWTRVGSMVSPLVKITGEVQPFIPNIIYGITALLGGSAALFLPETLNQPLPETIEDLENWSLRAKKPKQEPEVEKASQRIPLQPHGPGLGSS"}
{"Compound": "COc1cnc(-n2cnc(C)n2)c2[nH]cc(C(=O)C(=O)N3CCN(C(=O)c4ccccc4)CC3)c12", "target": "CYP3A4 human", "test system": "human", "setting": "dose not given, with: ritonavir", "how to read": "reference: without ritonavir", "endpoint": "exposure increase", "value": "40%"}
{"Compound": "Cc1cc2nc3c(=O)[nH]c(=O)nc-3n(C[C@H](O)[C@H](O)[C@H](O)COP(=O)(O)O)c2cc1C", "target": "Enterobacter cloacae NfsB", "setting": "bound", "endpoint": "midpoint potential", "value": "-190 mV"}
{"Compound": "Cc1c(O)cccc1C(=O)N[C@@H](CSc1ccccc1)[C@H](O)CN1C[C@H]2CCCC[C@H]2C[C@H]1C(=O)NC(C)(C)C", "target": "hepatic CYP3A human", "setting": "concentration not given", "endpoint": "inhibition", "value": "50%"}
{"Compound": "Cc1cc(C)c(CNC(=O)c2cc(Cl)c3c(c2C)O[C@@](C)([C@H]2CC[C@H](N(C)C)CC2)O3)c(=O)[nH]1", "target": "CYP3A4 (human)", "assay": "inhibitor", "test system": "human liver microsomes", "setting": "with: midazolam", "endpoint": "Ki", "value": "56.4 µM"}
{"Compound": "C=C[C@@H]1C[C@]1(NC(=O)[C@@H]1C[C@@H]2CN1C(=O)[C@H](C(C)(C)C)NC(=O)O[C@@H]1C[C@H]1CCCCCc1nc3ccc(OC)cc3nc1O2)C(=O)NS(=O)(=O)C1CC1", "target": "CYP2C9", "test system": "human liver microsomes", "endpoint": "IC50", "value": "> 100 µM"}
{"Compound": "O=S(=O)(O)C(F)(F)C(F)(F)C(F)(F)C(F)(F)F", "target": "CYP2D6", "assay": "inhibitor", "setting": "Tox21 screening", "endpoint": "IC50", "value": "62.2 ± 21.1 µM"}
{"Compound": "CCCCCc1cc(O)c(C/C=C(\\C)CCC=C(C)C)c(O)c1", "target": "CYP2C9, human", "assay": "enzyme activity, inhibitor", "test system": "human liver microsomes", "setting": "10 µM", "endpoint": "inhibition", "value": "inhibited"}
{"Compound": "O=S(=O)(O)C(F)(F)C(F)(F)C(F)(F)C(F)(F)C(F)(F)C(F)(F)C(F)(F)C(F)(F)F", "target": "CYP1A2", "assay": "inhibitor", "setting": "Tox21 screening", "endpoint": "IC50", "value": "43.7 ± 11.4 µM"}
{"Compound": "CN(Cc1cnc2nc(N)nc(N)c2n1)c1ccc(C(=O)N[C@@H](CCC(=O)O)C(=O)O)cc1", "target": "SLC22A8 (Homo sapiens, UniProt Q8TCC7)", "test system": "human", "setting": "200 mg/m2, without probenecid", "endpoint": "renal clearance", "value": "6.2 L/h"}
{"Compound": "Cc1ccc(NC(=O)[C@H]2CCCN(C(=O)c3c(C)cccc3F)[C@H]2c2ccc(NC3CCCC3)cc2)cc1C(F)(F)F", "target": "CYP3A4", "assay": "inhibitor", "test system": "human, fasted", "setting": "oral, 30 mg twice daily, 11 days, with: midazolam", "how to read": "reference: midazolam alone", "endpoint": "midazolam AUC increase", "value": "1.8 fold"}
{"Compound": "FC(F)(F)C(F)(F)C(F)(F)C(F)(F)C(F)(F)C(F)(F)CCI", "target": "CYP2C9", "assay": "inhibitor", "setting": "Tox21 screening", "endpoint": "IC50", "value": "inactive"}
{"note": "Some of these lines once more:"}
{"Compound": "Cc1cc(C)c(CNC(=O)c2cc(Cl)c3c(c2C)O[C@@](C)([C@H]2CC[C@H](N(C)C)CC2)O3)c(=O)[nH]1", "target": "CYP3A4 (human)", "assay": "inhibitor", "test system": "human liver microsomes", "setting": "with: midazolam", "endpoint": "Ki", "value": "56.4 µM"}
